Experimental data collected from several papers.
Each numbered part is a random draw from the data of one study; scales do not carry over between parts. Substitutions count along the parent as printed.

Study 1 — target: CCND1, cyclin fold, Cln2 fusion (human); method: yeast growth competition, sequencing; medium: yeast; notes: weak parent motif; baseline: not given; direction: higher = stronger binding; measurement: normalised enrichment score
Starting sequence: WEE1 docking peptide (human); HKTFRKLRLFDTP; partner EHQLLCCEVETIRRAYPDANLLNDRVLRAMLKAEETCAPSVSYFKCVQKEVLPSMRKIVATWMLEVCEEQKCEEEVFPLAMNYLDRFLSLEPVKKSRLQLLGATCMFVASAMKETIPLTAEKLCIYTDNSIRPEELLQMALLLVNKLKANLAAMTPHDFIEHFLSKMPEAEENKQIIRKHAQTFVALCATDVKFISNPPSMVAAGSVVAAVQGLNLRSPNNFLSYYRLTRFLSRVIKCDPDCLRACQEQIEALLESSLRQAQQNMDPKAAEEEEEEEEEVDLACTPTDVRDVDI
D11L: 0.349
D11F: 0.585
T12S: 0.235
H1K: -0.466
K6M: -0.254
L9W: 0.437
T12D: 0.675
F10S: -0.647
R5F: 0.0623
R5S: 0.0512
F10K: -0.868
R5K: -0.142
F4M: 0.611
R8V: 0.0895
K2N: 0.624
P13F: 0.226
D11E: -0.189
K2D: 0.303
F4E: -0.0232
P13G: -0.448
P13I: 0.0696
F10R: -0.361
L7G: 0.257
H1W: 0.672
H1R: -1.16

Study 2 — method: protein-binding microarray; form: double-stranded DNA, one strand shown; medium: in vitro; tested at: 250 nM; notes: 60-bp whole probe; together with: salmon DNA 0.4 mg/ml; baseline: random background probes; direction: higher = stronger binding; measurement: log fluorescence; constant ends, left off below: GCCTAGCAC … GTCTTGATTCGCTTGACGCTGCTG
Target: Interferon regulatory factor 7, full length, phosphomimetic (IRF7, Homo sapiens, UniProt Q92985, residues 1-503, S101K/S471D/S472D/S475D/S476D/S477D/S483D/S484D/S487D)
Residues (chain): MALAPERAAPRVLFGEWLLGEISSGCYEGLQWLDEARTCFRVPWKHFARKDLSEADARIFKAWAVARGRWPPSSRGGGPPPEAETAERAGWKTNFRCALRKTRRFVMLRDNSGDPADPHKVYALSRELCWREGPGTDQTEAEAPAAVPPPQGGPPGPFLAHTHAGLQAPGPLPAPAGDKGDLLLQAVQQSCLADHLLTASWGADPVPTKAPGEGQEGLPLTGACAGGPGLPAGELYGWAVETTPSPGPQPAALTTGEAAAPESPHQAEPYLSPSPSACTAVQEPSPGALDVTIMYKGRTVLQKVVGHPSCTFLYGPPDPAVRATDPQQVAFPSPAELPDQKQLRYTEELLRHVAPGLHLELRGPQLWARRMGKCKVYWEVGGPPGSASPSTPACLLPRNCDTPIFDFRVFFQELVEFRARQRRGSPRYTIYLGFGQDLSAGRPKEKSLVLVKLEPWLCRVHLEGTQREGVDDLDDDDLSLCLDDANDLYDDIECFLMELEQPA
TCATTTTTCATTTTTTTACTGTGCTAG: 1.61 z-score
TCAGTTTTGAGCTCTGTCTGGGTGCTA: 0.0151 z-score
GACGGTTCCGGTCTCGGGACGTGCTAG: 1.17 z-score
TTAGATATCTGTATCGATTAGTGCTAG: 0.204 z-score
GACGGTATCATACTGCTGACGTGCTAG: -0.209 z-score
TTAGGACTGGGTTTCGGTTGGTGCTAG: 7.33 z-score
CATCATTGCCTATTTTTCCCCGTGCTA: 0.361 z-score
ATTGCTTCCTCTTTTTTGTTGTGCTAG: 0.752 z-score
TTAGGTATCGCGTATCGGTTAGTGCTA: 0.546 z-score
TTAGATCTCAGTCCCGATTAGTGCTAG: 0.319 z-score
TCATGTATTTGTCCCTAACTGTGCTAG: 0.7 z-score
GACGGACCGGACTTTCGGGACGTGCTA: -0.285 z-score
GACGGACTGGACACTGGGGTCGTGCTA: -0.54 z-score
GACGGTTTCAACTTTCGGGACGTGCTA: 1.61 z-score
GACGGACTGTGGTATCGGGACGTGCTA: -0.426 z-score
GACGGTCTCAGTTTCGAGACGTGCTAG: 4.25 z-score
TTAGTTTTCAGTATCGATTAGTGCTAG: 2.49 z-score
GACGATTTCGGCTATCGAGACGTGCTA: -0.0383 z-score
GACGATTTCAGGACTGGAGACGTGCTA: -0.142 z-score
TTAGGTCACGGTATCGGTTAGTGCTAG: 1.96 z-score
GATAATTTATAAATAAAAAAGTGCTAG: 0.0498 z-score
TTAGGTATCCCTCTCCTTTAGTGCTAG: -0.0916 z-score
TAAGGTATCCTTCTCCTTTAGTGCTAG: 0.651 z-score
GGATGAGTCACTTCTGGTGCTGTGCTA: -0.964 z-score
GACGGACTGAACTATCGGGACGTGCTA: -0.63 z-score

Study 3 — method: RNA Bind-n-Seq; form: RNA; medium: in vitro; tested at: 365 nM; baseline: no-protein control; direction: higher = stronger binding; measurement: RBNS enrichment (R)
Target: RNA binding protein fox-1 homolog 2, RRM domain, GST-SBP tag (RBFOX2, Homo sapiens, UniProt O43251-10, residues 100-194)
Notes: natural RNA segment, single round, ends assumed
Target sequence (chain): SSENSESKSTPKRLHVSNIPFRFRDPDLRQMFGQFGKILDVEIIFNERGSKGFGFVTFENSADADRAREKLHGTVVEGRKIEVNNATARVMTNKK
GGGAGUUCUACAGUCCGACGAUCGGAAGGGCCCAUAGCCACUUCCUCUGCUCCUGAGCAGGGCUGAAGCCGUUUGCAAGGGACUUGCUUUGCACAGUUUUGCUGUACUUUCACAUUUUAUUAUGUAGCAAGAUUGGAAUUCUCGGGUGCCAA: 0.257
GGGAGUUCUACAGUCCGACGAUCCUCCUUGUCUGAGGUGAAAGCCUUCAGUUUAGCUCCCUGGCCCUUGUGUGGAAGCAAUGUGGAGUGAAUGAGCAUAUUUUGAUUUAAGCAAGGUAGCUUGGAAUACCUUUUGGAAUUCUCGGGUGCCAA: 18.5
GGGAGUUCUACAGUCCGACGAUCAUUACUAAGAAACACAUCAAAUAAACUGACUUUUUCCCCCCAAUAAAAGCUCUUCUUUUUUAAUAUAUAAAAGCCCCUUCCCAAGGAGUUUGCUGUGGAAAUGUGUUUGGUGGAAUUCUCGGGUGCCAA: 0.7
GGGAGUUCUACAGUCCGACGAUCCACUGUGAACGGAGGGAAGUGCGUGGGGUCAGGUGACCUGACUCCAACGAUUUGGUCAAGGAGGUUAUGAUUCUUCAUAGUCACUCUCCUCAUGAAUCCUUCCCAUUUAUUGGAAUUCUCGGGUGCCAA: 0.271
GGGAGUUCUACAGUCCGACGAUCUUGAAAUUUCUUUAUUAAUCGAUGAAAUAUGAAUUCUAAAUUCUAGCAUUGAAGCUUUUCACCAAAAGAAGUCUCUCCAAAAUAAAUCUUUUGCAGCAAAGUGAUAUUUAUGGAAUUCUCGGGUGCCAA: 0.948
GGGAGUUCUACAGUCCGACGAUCUCUUUUGCACUUUUCUUACCUGAUAAGUCUCCUCCACUGGCUUCAUCGGGCAGACUUUCUGCCACUGGCUUUUCAAACACUGUCAAUUGGGUUAUUUUUUUACACAGCUGUGGAAUUCUCGGGUGCCAA: 0.547
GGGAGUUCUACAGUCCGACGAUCUAUCCUACAGAAAUUUAAGUAGCUACUGCUUCUCCUGAAAGCCCAAGUUGAAAAUGGGACCACAGGGGCACAGGGCUACUGACCCUCACAGGGCAUGCCAGCGUUAACACUGGAAUUCUCGGGUGCCAA: 0.428
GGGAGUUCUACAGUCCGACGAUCGUGCAUUUUAUACUGUAUUAAAUAUGGAGAUACUUCUAAUGCCUCUCUAAAAUUAAAUUUUACAUAAAAGUUAGUUUUAUUCACCUUUAGGCUUUCCAAGUGAAUUGUGAUGGAAUUCUCGGGUGCCAA: 2.71
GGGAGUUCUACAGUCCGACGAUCUGCGCUGUCCCGGCCGCAAGAGCGGGGCCGCCCCGCCGAGGUUUGUAGCAGCCGGGAUGUGACCCUCCAGGGUUUGGGUCGCUUUGCGUUUGUCGAAGCCUCCUCUGAAUUGGAAUUCUCGGGUGCCAA: 3.17
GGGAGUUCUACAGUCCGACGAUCUAUACCUCACGUACUGUGUACUUUGUACAUAUAUUUUACCUUUUAUACCUAUGUUCGAUUUUGUUUUGUUUUGUUUUGUUCUGGCUUUGAGGCUUGUUUUGUUGUCUGUGUGGAAUUCUCGGGUGCCAA: 15.9
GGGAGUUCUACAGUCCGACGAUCGAAGGCAGUGCCUGCUCUGCUGUGAGCCGCCAGGAACCCUCCUCCUGUCAAUGGGGGUGUAGUAUUUUUGCCAAAAUAUCAUGUUCAAUUUCAGUAGUUUGAUCAGUUGAUGGAAUUCUCGGGUGCCAA: 0.71
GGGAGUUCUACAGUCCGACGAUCAUUUGGAAACUACAGUAAAGAAACCUUCAGAUACCAGUUCCAUCCUGAAGCCCUCUGUUGAACAACAGGGCCAGAUCCUAAAGCUCUUUCAGGGAGCUCUUCUCUGGGGCUGGAAUUCUCGGGUGCCAA: 0.276

Study 4 — method: protein binding microarray; form: double-stranded DNA, one strand shown; medium: in vitro; tested at: not given; baseline: not given; direction: higher = stronger binding; measurement: E-score
Target: Histone acetyltransferase KAT6A, winged helix 2, GST fusion (KAT6A, Homo sapiens, UniProt Q92794, residues 85-181)
Notes: 8-mer, flanks averaged, mean of 2 arrays, mostly near background
Target sequence (chain): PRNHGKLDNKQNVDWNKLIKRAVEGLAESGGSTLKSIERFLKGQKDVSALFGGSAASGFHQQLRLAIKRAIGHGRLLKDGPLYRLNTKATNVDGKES
AGTGTTAG: 0.0568
CTAATTAG: -0.116
GGTCAAAA: 0.0288
CAGGCGCA: 0.179
AAATTGAA: -0.0758
AAACGGCA: 0.045
GACGCATA: -0.0916
CAACTATG: -0.0687
GGGGGGAA: -0.0987
AGGTCACG: -0.146
AGACCCAG: -0.0428
CGTTATAC: -0.0362
AGTTCAAG: 0.0742
ATCCACCG: 0.0517
AAGGTTCG: 0.0348
AGTATAAC: 0.0502
AAGACGCG: -0.0434
ATGGTGCG: -0.0359
ACAGAATC: -0.0599
ACTAATAC: 0.0664
ATTCCGGG: 0.156
TAATACAA: 0.105
AGGTATAG: -0.16
ATACCGTG: -0.139
ATGGGCGA: -0.0132

Some of these lines once more (study 1):
R8V: 0.0895
D11F: 0.585
P13I: 0.0696
F4M: 0.611
K6M: -0.254
H1K: -0.466
D11E: -0.189
